Measurements of several laboratories.
Protocols differ between the studies behind these lines. Several values in a cell are separate wells, animals, samples, runs or records. ± gives the spread as reported. Converted amounts (≈) assume the structure as drawn.
UniProt P04062, sequence (whole entry, unmodified, looked up): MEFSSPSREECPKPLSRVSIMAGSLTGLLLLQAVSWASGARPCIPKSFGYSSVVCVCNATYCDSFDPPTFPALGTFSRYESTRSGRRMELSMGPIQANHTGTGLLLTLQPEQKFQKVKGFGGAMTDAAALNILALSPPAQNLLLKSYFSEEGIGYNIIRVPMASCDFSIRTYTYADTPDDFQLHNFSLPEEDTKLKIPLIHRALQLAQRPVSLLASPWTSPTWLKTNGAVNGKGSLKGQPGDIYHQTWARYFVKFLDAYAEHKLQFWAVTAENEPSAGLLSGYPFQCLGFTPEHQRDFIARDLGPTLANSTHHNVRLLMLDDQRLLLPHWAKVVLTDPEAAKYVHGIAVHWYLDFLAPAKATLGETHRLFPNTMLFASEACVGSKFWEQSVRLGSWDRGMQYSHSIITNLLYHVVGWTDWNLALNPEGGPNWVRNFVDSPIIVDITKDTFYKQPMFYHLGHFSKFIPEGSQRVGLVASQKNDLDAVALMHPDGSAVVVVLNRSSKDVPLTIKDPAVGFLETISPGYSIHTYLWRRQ

For `CC(C)(O)c1ncc([S@](N)(=O)=NC(=O)Nc2c3c(cc4c2CCC4)CCC3)s1`, “subjects with TEAEs” read 25% (item: musculoskeletal, connective tissue; healthy human; oral, 25 mg, 14 days, ECT formulation, twice daily).
`CCc1cnc(NC(=O)c2cc(S(=O)(=O)N3CCOCC3)ccc2N(C)C2CCCC2)s1` gave a Creatinine of 0.2 mg/dL (mouse, serum; 10 mg/kg, 3 doses).
The half-life of `Cc1c(Cc2ccc(F)c(OC(C)C(=O)O)c2)c2ccc(C(=O)NC(C)c3ccc(C(C)(C)C)cc3)cc2n1CC(C)C` (stereo not drawn) is reported as over 1 h (human liver microsomes; 1 µM, with: microsomes 1 mg/mL).
`C/C(N)=N/C(=N\S(=O)(=O)c1ccc(C(F)(F)F)cc1)N1C[C@H](c2ccccc2)C(c2ccc(Cl)cc2)=N1` gave a biliary excretion of 0.97% (male Sprague-Dawley rat, bile-duct cannulated; intravenous, 3 mg/kg; relative to: dose).
For `O=c1c2ccccc2[se]n1CCCCCCn1[se]c2ccccc2c1=O`, the solubility was 510 ± 20 µg/mL (≈ 1070 µM) (shake-flask, RP-HPLC; Tween 80; 24 h, 25 °C).
The AUC(0-t) of `OC1(C(F)(F)F)CCN(c2nc(Nc3ccnc(C(F)(F)F)c3)nc(-c3cccc(C(F)(F)F)n3)n2)C1` (stereo not drawn) is reported as 5630 ± 567 ng·h/mL (monkey, blood; oral, 1 mg/kg).
`OC[C@@H]1[C@@H](O)[C@H](O)[C@@H](O)CN1CCCCCCC12CC3CC(CC(C3)C1)C2` gave an IC50 of 60 nM (GBA1 (Homo sapiens, UniProt P04062, R534H); inhibitor, 4MU-β-D-glucopyranoside; with: 4MU-β-D-glucopyranoside).
With `C=CC(=O)Nc1cc(Nc2nccc(-c3c[nH]c4ccccc34)n2)c(OC)cc1N(C)CCN(C)C` the recovery was 54.4% (storage stability; human dried blood spot; 30 d, on ice, LQC level).
For `CN1CCC[C@]1(C)/C=C/S(=O)(=O)NC(=O)Nc1c2c(cc3c1CCC3)CC=C2`, “Cmax at second steady-state dose” read 43600 ng/mL (human, plasma; oral, 100 mg twice daily of parent drug, day 14, metabolite of dosed drug).
`O=C(O)CN1CCN(CC(=O)O)CCN(Cc2cccc(P(=O)(O)O)n2)CC1` has a log Ka of 2.42 (potentiometric titration; aliphatic carboxylate deprotonation).
With `CC[C@H](C)[C@@H](C(=O)N[C@@H](CC(C)C)C(=O)N[C@@H](CO)C(=O)N[C@@H](CO)C(=O)N[C@H](C(=O)N[C@@H](CCC(=O)O)C(=O)N[C@H](C(=O)NCC(=O)N[C@@H](CO)C(=O)N[C@@H](CC(N)=O)C(=O)N[C@H](C(=O)N1C[C@H](O)C[C@H]1C(N)=O)[C@@H](C)O)C(C)C)[C@@H](C)O)N(C)C(=O)[C@H](C)NC(=O)CN(C)C(=O)[C@H](Cc1ccccc1)NC(=O)[C@H](CO)NC(=O)[C@H](CO)NC(=O)[C@H](CCCNC(=N)N)NC(=O)[C@H](CCC(N)=O)NC(=O)[C@H](CC(C)C)NC(=O)[C@H](Cc1ccccc1)NC(=O)[C@H](CCCC(=O)O)NC(=O)[C@H](C)NC(=O)[C@H](CC(C)C)NC(=O)[C@H](CCCNC(=N)N)NC(=O)[C@H](CCC(=O)O)NC(=O)[C@@H](NC(=O)[C@H](C)NC(=O)[C@@H]1CCCCNC(=O)C[C@H](NC(=O)[C@H](CCCNC(=N)N)NC(=O)CC[C@H](NC(=O)CCCCCCCCCCCCCCCCCCC(=O)O)C(=O)O)C(=O)NCC(=O)N[C@@H]([C@@H](C)O)C(=O)N[C@@H](C)C(=O)N[C@@H]([C@@H](C)O)C(=O)N1)[C@@H](C)O` the covalent oligomers was at most 0.2% (SEC; formulation, histidine buffer, mannitol, NaCl; 1 weeks, pH 6.1, 40 °C).
`CC(C)C[C@H](NC(=O)[C@H](CCCCN)NC(=O)C1CCC=CCCC(NC(=O)[C@H](CCCCN)NC(=O)[C@@H](N)CC(C)C)C(=O)N[C@@H](CCCCN)C(=O)N[C@@H](CC(C)C)C(=O)N[C@@H](CCCCN)C(=O)N2CCC[C@@H]2C(=O)NCC(=O)N[C@@H](CCCCN)C(=O)N[C@@H](CC(C)C)C(=O)N[C@@H](CCCCN)C(=O)N1)C(N)=O` (stereo partly drawn) gave a retention time of 15.8 min (RP-HPLC C18; hydrophobicity).
For `O=C(Nc1cnccc1-c1ccc([18F])nc1)c1ccnc(NC(=O)C2CC2)c1`, the SUV was 0.302 (FVB/NJ mice (both sexes), pancreas; intravenous, dose not given, 120 min, with: tariquidar 15 mg/kg i.v. pre-dose).
The tracer uptake of `CC(C(=O)O)n1nc(Cn2cc3cc(OCC[18F])c(Cl)cc3n2)c2ccccc2c1=O` (racemic) is reported as 0.5 %ID/g (rat, blood; 2 h).
`CN1CCC[C@]1(C)/C=C/S(=O)(=O)NC(=O)Nc1c2c(cc3c1CC(O)C3)CCC2` (stereo partly drawn): “Cmax at second steady-state dose” 4700 ng/mL (human, plasma; oral, 50 mg twice daily of parent drug, day 14, metabolite of dosed drug).
`CN(O)C(=O)CCC(=O)NCCCN(CCCCN(CCCNC(=O)CCC(=O)N(C)O)C(=O)CCC(=O)N(C)O)C(=O)CCC(=O)N(C)O.[89Zr]` gave an intact complex of 68.1 ± 1% (radio-TLC; aqueous buffer; 3 d, pH 7.2, 37 °C, 89Zr-labelled complex, with: FeCl3 100-fold excess).
The relative translation of `CCc1ccc(CN2CCCC(CNC(=O)c3cccc(OC)c3OC)C2)cc1` (stereo not drawn) is reported as 112% (Trypanosoma cruzi; reporter mRNA translation, inhibitor, item: capped polyadenylated Renilla luciferase mRNA; cell-free extract; concentration not given; relative to: control RNA).
`CNc1cc(N)c(C(N)=O)cn1` — result for “concentration at time”: 22.4 µM (Han Wistar rats, male, plasma; oral, 30 mg/kg, 1.50 h).
`CCOC(=O)C1CCCN(Cc2ccc(-c3ccccc3)cc2)C1` (stereo not drawn) gave a relative translation of 117% (Trypanosoma cruzi; reporter mRNA translation, inhibitor, item: capped polyadenylated Renilla luciferase mRNA; cell-free extract; concentration not given; relative to: control RNA).
For `C=C(NC(=O)c1csc(-c2nc3c(cc2O)-c2nc(cs2)C(=O)NC(C(C)O)C(=O)NC(=C(C)OC)c2nc(cs2)C(=O)NC2c4nc(cs4)C(=O)NC(COC(=O)c4c5c6c(cccc6n4O)COC(=O)C(OC4CC(C)(O)C(N(C)C)C(C)O4)C2OC5)c2nc-3cs2)n1)C(N)=O` (stereo not drawn), the AUC(0-inf) was 769 ng·h/mL (ICR mice, Streptococcus pneumoniae ATCC 49169 infected, immunocompromised, blood; intravenous, 8 mg/kg/day once daily).
`Cc1nn(-c2nc3c(F)cc(F)cc3s2)c(O)c1C(c1ccc(C(F)(F)F)cc1)c1c(C)nn(-c2nc3c(F)cc(F)cc3s2)c1O`: “apparent terminal volume of distribution (Vz/F, observed)” 3.06 L/kg and 4.28 L/kg and 2.71 L/kg (ICR mouse, plasma; intraperitoneal, 10 mg/kg).
The log K of `O=C([O-])CN1CCN(CC(=O)[O-])CCN(CC(O)CN(CC(O)CN2CCN(CC(=O)[O-])CCN(CC(=O)[O-])CCN(CC(=O)[O-])CC2)C[C@H](O)[C@@H](O)[C@H](O)[C@H](O)CO)CCN(CC(=O)[O-])CC1.[Gd+3]` (stereo partly drawn) is reported as 9.99 (pH-potentiometry, spectrophotometry, item: Gd(LH-1)M, M = Cu2+; 25 °C, 0.15 M NaCl).
For `CCCCN1C(=O)c2cccc3c(NCCCCCCN4CCOCC4)ccc(c23)C1=O`, “fluorescence quantum yield” read 0.73 (methanol).
`CCn1nc(Cl)c2c1-c1cnc(N)c(c1)O[C@H](C)c1cc(F)ccc1-c1nn(C)cc1C2`: “free plasma concentration” 0.00168 µM (Balb/c nude mouse, female, plasma; 0.5 mg/kg, single dose, 12 h).
`CN1CCCNC(=O)c2cccc(c2)C(=O)NCCCN(C)CCCNc2cccc3c2C(=O)c2cccc(c2C3=O)NCCC1` has a body weight of 26 g and 29 g and 27 g and 23 g (mouse xenograft model; dose not given, day 6).
`CC1Cc2ccccc2N1C(=O)CN1CCN(Cc2ccccc2)CC1` (stereo not drawn) — result for “brain to blood ratio”: 9.01 and 10 (female NMRI mice, whole blood; intraperitoneal, 10 mg/kg free base, 15 min; relative to: brain over blood).
`C#CCOCCOCCOCCOCCn1cc(C(ONC(=O)/C=C/C(C)=C/C2(C)Oc3cc(N(C)C)ccc3C2=O)(c2ccc(C)cc2)c2ccc(C)cc2)nn1` (stereo not drawn): “release from prodrug hydrolysis” 27% (HPLC; aqueous buffer, 20% acetonitrile; concentration not given, 300 min, pH 3; relative to: initial prodrug amount).
`CC[C@H](C)[C@H](NC(=O)[C@H](CC(N)=O)NC(=O)[C@@H](N)CCSC)C(=O)N[C@@H](CCSC)C(=O)N[C@@H](CC(=O)O)C(=O)N[C@@H](Cc1ccccc1)C(=O)N[C@@H](CC(N)=O)C(=O)N[C@H](C(=O)N[C@@H](CCCCN)C(=O)N[C@@H](CCCCN)C(=O)N[C@@H](CC(C)C)C(=O)N[C@@H](C)C(=O)N[C@@H](C)C(=O)N[C@@H](CC(=O)O)C(=O)N[C@@H](C)C(=O)NCC(=O)N[C@H](C(=O)N[C@@H](Cc1c[nH]c2ccccc12)C(=O)N[C@@H](CC(C)C)C(=O)N[C@@H](CO)C(=O)N[C@@H](CCCNC(=N)N)C(=O)N[C@@H](C)C(=O)N[C@H](C(=O)N[C@@H](CCC(N)=O)C(=O)N[C@@H](Cc1ccccc1)C(=O)N[C@H](C(=O)N[C@@H](CCC(=O)O)C(=O)N[C@@H](CCC(=O)O)C(=O)N[C@@H](CCCCN)C(=O)N[C@@H](CC(C)C)C(=O)NCC(=O)N[C@@H](CCC(N)=O)C(=O)N[C@@H](C)C(N)=O)[C@@H](C)O)C(C)C)[C@@H](C)O)C(C)C` — result for “ΔG of binding”: -6.9 kcal/mol (circular dichroism titration; 25% DOPS/75% DOPC liposomes; 50 µM, pH 7.4, 20 °C).
The concentration of `C=CC(=O)N1CCCC(n2c(=O)c3ncccc3n(Cc3ccc(Oc4ccccc4)cc3)c2=O)C1` (stereo not drawn) is reported as 37800 ng/mL (male BALB/c mouse, plasma; intraperitoneal, 200 mg/kg, 2 h).
`N#C[C@@H]1CC(F)(F)CN1C(=O)CNC(=O)c1ccnc2c(NC(=O)[C@H](CCCCNC(=O)CCOCCOCCOCCOCCOCCOCCNC(=O)CN3CCN(CC(=O)[O-])CCN(CC(=O)[O-])CCN(CC(=O)[O-])CC3)NC(=O)CCCc3ccc(I)cc3)cccc12.[177Lu+3]` has a tissue uptake of 3.99 ± 1.12 %ID/g (mouse, U-87 MG tumour xenograft, kidneys; 24 h).

Excerpt of the above:
`CC(C)C[C@H](NC(=O)[C@H](CCCCN)NC(=O)C1CCC=CCCC(NC(=O)[C@H](CCCCN)NC(=O)[C@@H](N)CC(C)C)C(=O)N[C@@H](CCCCN)C(=O)N[C@@H](CC(C)C)C(=O)N[C@@H](CCCCN)C(=O)N2CCC[C@@H]2C(=O)NCC(=O)N[C@@H](CCCCN)C(=O)N[C@@H](CC(C)C)C(=O)N[C@@H](CCCCN)C(=O)N1)C(N)=O` (stereo partly drawn) gave a retention time of 15.8 min (RP-HPLC C18; hydrophobicity).
`CN1CCCNC(=O)c2cccc(c2)C(=O)NCCCN(C)CCCNc2cccc3c2C(=O)c2cccc(c2C3=O)NCCC1` has a body weight of 26 g and 29 g and 27 g and 23 g (mouse xenograft model; dose not given, day 6).
`CNc1cc(N)c(C(N)=O)cn1` — result for “concentration at time”: 22.4 µM (Han Wistar rats, male, plasma; oral, 30 mg/kg, 1.50 h).
The concentration of `C=CC(=O)N1CCCC(n2c(=O)c3ncccc3n(Cc3ccc(Oc4ccccc4)cc3)c2=O)C1` (stereo not drawn) is reported as 37800 ng/mL (male BALB/c mouse, plasma; intraperitoneal, 200 mg/kg, 2 h).
